Earlier results that unrelated publications cite.
Sequence of UniProt P41149 (whole entry, looked up): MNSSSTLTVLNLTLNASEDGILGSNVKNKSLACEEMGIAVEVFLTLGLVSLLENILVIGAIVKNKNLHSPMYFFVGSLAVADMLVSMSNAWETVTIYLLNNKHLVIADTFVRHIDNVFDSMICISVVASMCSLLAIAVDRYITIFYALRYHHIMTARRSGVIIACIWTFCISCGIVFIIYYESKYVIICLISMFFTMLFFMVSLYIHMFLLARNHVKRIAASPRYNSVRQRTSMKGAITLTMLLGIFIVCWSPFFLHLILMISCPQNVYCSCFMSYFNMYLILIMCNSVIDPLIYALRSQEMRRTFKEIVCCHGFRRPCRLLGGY
Sequence of UniProt P00698 (whole entry, looked up): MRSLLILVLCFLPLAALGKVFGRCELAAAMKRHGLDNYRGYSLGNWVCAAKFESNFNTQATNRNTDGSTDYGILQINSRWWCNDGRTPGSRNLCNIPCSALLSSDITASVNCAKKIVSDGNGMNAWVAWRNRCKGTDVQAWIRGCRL
Sequence of UniProt P0AES9 (whole entry, looked up): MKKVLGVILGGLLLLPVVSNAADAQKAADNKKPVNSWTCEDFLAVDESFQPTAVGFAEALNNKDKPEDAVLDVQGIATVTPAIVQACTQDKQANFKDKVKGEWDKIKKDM

For `insulin glulisine`, the AUC was 2.02 nM·h (refers to: total insulin; human; subcutaneous thigh, 0.2 U/kg, dose-adjusted from 0.1 U/kg).
`CVRLHESCLGQQVPCCDPCATCYCRFFNAFCYCR (agouti-related protein (87–120); sequence looked up)` has an EC50 of greater than 100 µM (Melanocortin receptor 5 (Mus musculus, UniProt P41149); reporter gene, agonist, beta-galactosidase reporter; peptide).
`hdeA mature protein (Escherichia coli, UniProt P0AES9)` gave a pKa of 4.07 (NMR, refers to: Glu46; 298 K, numbering of the source).
With `LYZ (Gallus gallus, UniProt P00698)` the pKa was 2.6 (NMR, refers to: Glu7; NaCl 100 mM, numbering of the source).

For quick reference, copied from above:
`hdeA mature protein (Escherichia coli, UniProt P0AES9)` gave a pKa of 4.07 (NMR, refers to: Glu46; 298 K, numbering of the source).
